# Measured values pooled from the literature.
# “And” joins repeats or separate records; there may be more than shown. ± gives the spread as reported.
Compound,test,test system,setting,scale,endpoint,value
c1ccc(-c2n[nH]cc2-c2ccnc3ccccc23)nc1,"kinase binding, competitor, MIB/MS competition, item: PBS2",Candida albicans cell lysate,1 µM,baseline: DMSO,log2 fold change,1.37
CSc1ccc(C(=O)/C=C/c2cc(C)c(OC(C)(C)C(=O)O)c(C)c2)cc1,,"C57BL/6 mice, WD/CCl4 MASH model","oral, 30 mg/kg daily, 4 weeks",baseline: model group,NAS score,decreased
C[C@H]1C[C@H]2CSC(N)=N[C@@]2(c2nc(NC(=O)c3ccc(OC(F)F)cn3)cs2)CO1,item: Aβ1-40,"healthy adults, plasma","200 mg single dose, 8 h post-dose",baseline: placebo,percent change from baseline,-87.7%
O=C(NC[C@H]1CN(c2ccc(N3CCOCC3=O)cc2)C(=O)O1)c1ccc(Cl)s1,,"human mild renal impairment, plasma","10 mg, mean, unit not given",baseline: baseline,maximum prothrombin time prolongation,8.26
C[C@@H](NC(=O)N1C(=O)[C@H](Cc2ccnc(N)c2)[C@H]1C(=O)O)C1CCCCC1,,human,"iv infusion, 1.5 mg/kg/h, 24 h",,ACT Emax,128 s
CN(C)C(=O)c1cc2cnc(Nc3ccc(N4CCNCC4)cn3)nc2n1C1CCCC1,"RNA-seq GSEA, item: HALLMARK_MYC_TARGETS gene set",MB002 tumour,concentration not given,"baseline: vehicle, direction not given",enrichment score,0.534
N#Cc1ccc2c(c1)[C@H]1CCCN(C(=O)c3ccc4[nH]cnc4c3)[C@H]1C2,,"T2DM patients with overweight or obesity, urine","oral, 10 mg, day 14, 0-24 h, multiple dosing, adjusted geometric mean","baseline: baseline day -1, -24-0 h",total urinary corticosteroid excretion,223%
Cc1cn(-c2ccc3n(c2=O)CCN([C@@H](C)[C@@H]2CC[C@H](c4cc(F)c(Cl)cc4C(F)(F)F)O2)C3=O)cn1,,"human, CSF","300 mg single dose, serial CSF sampling",baseline: placebo and baseline,maximum CSF Aβ38 increase,46%
COc1ccccc1[C@H](Cn1c(=O)n(C(C)(C)C(=O)O)c(=O)c2c(C)c(-c3ncco3)sc21)OC1CCOCC1,"[1-13C]acetate infusion, isotopomer analysis","overweight or obese healthy men, plasma VLDL-TG palmitate","oral, 50 mg single dose, 5 h post-dose, together with: oral fructose",,fractional hepatic DNL,5.18 % new palmitate
CSc1ccc(-c2nsc(N)n2)cc1,"CoA-CPM signal reduction, CPM fluorescence thiol",cell-free biochemical,"assay interference counter-screen, together with: CoA replacing acetyl-CoA",,IC50,> 125 µM
O=C(O)CNC(=O)Cc1ccccc1,,"ventricular cardiomyocytes, C57BL/6 mouse","dose not given, 0.308 s",,sarcomere length,1.71 µm
CC1=CS(=O)(=O)c2ccccc21,"CoA-CPM signal reduction, CPM fluorescence thiol",cell-free biochemical,"assay interference counter-screen, together with: CoA replacing acetyl-CoA",,IC50,> 125 µM
OCC(O)CO,targeted LC-MS metabolomics,"Mus musculus male Slc25a13 knockout, liver","drinking water, 5% w/v, 2 days",,hexose phosphate concentration,0.864 mM and 0.658 mM and 0.605 mM and 0.721 mM and 0.495 mM
CO[C@@H]1[C@@H](OC(N)=O)[C@@H](O)[C@H](Oc2ccc3c(O)c(NC(=O)c4ccc(O)c(CC=C(C)C)c4)c(=O)oc3c2C)OC1(C)C,,"Brca1 cc/cc MEFs, mouse",200 µM,,colony survival,12.3% and 28.3% and 24.6% and 9.62% and 11.8%
COc1cccc(CC2NC(=O)CN(Cc3ccccc3)C2=O)c1I (centres unmarked),,rat spinal nerve ligation,"intraperitoneal, 3 mg/kg",,onset of significant effect,1 h
C[C@H]1O[C@@H](O[C@H]2CC[C@@]3(C)[C@@H](CC[C@]4(C)[C@@H]3C=C[C@]35OC[C@@]6(CCC(C)(C)C[C@H]63)[C@@H](O)C[C@]54C)[C@]2(C)CO)[C@H](O)[C@@H](O[C@@H]2O[C@H](CO)[C@@H](O)[C@H](O)[C@H]2O)[C@H]1O,,"pair-fed control mice, no ethanol, plasma","oral, 15 mg/kg/day",,AST activity,35.5 U/L and 37.5 U/L and 44.5 U/L and 39 U/L and 45.2 U/L
N#Cc1ccc2c(c1)[C@H]1CCCN(C(=O)c3ccc4[nH]cnc4c3)[C@H]1C2,item: FPG,human,"240 mg once daily, day 28, adjusted mean",baseline: placebo,change from baseline,5.9 mg/dL
CC(c1cc2ccccc2s1)N(O)C(N)=O (centres unmarked),,human blood,"3 µM, together with: A23187",,20-OH-LTB4 level,236 ± 96 pg/mL
C=CC(=O)N1CCC(c2ccc(C(N)=O)c(-c3ccc(Oc4ccccc4)cc3)n2)CC1,"tumour response, Lugano classification",patients with relapsed/refractory MCL,"investigator assessed, 10.5 months follow-up",,PR,51.9%
CC(C)[C@H](C(=O)Nc1ccc(C(=O)NO)cc1)c1ccccc1,volumetric MRI,"human, left schwannoma","dose not given, day 64",,tumour volume,0.119 cm3
OC(CCN1CCCCC1)(c1ccccc1)C1CC2C=CC1C2 (centres unmarked),resting-state EEG,healthy elderly humans,"oral, 4 mg, eyes closed, LS mean",,EEG Alpha2-power Pz-O1,5 µV²
CSCCNc1nc(SCCC(F)(F)F)nc2c1ncn2[C@@H]1O[C@H](COP(=O)(O)OP(=O)(O)C(Cl)(Cl)P(=O)(O)O)[C@@H](O)[C@H]1O,"ADP-induced platelet aggregation, LTA","human patients, platelet-rich plasma","dose not given, 1 h, together with: ADP 5 µM",,inhibition,41.7 ± 22.2%
CC(C)NCC(O)c1ccc(O)c(O)c1 (centres unmarked),,"ventricular cardiomyocytes, C57BL/6 mouse","dose not given, 0.676 s",,sarcomere length,1.72 µm
[Cl-].[Cl-].[Ru+2].c1cnc2c(c1)c1nc[nH]c1c1cccnc12.c1cnc2c(c1)ccc1cccnc12.c1cnc2c(c1)ccc1cccnc12,,air-saturated acetonitrile,,baseline: Ru(bpy)3(PF6)2,singlet oxygen quantum yield,0.56
COc1cc(Nc2ncc3c(n2)-c2ccc(Cl)cc2C(c2c(F)cccc2OC)=NC3)ccc1C(=O)O,,"mice, SK-N-AS neuroblastoma xenograft","oral, 20.8 mg/kg, day 7",,relative tumour volume T/C,4.51
Cn1c(SC2=CS(=O)(=O)c3ccccc32)nc2ccccc21,"CoA-CPM signal reduction, CPM fluorescence thiol",cell-free biochemical,"assay interference counter-screen, together with: CoA replacing acetyl-CoA",,IC50,> 125 µM
NC(=O)c1cnc2[nH]ccc2c1N[C@@H]1[C@@H]2CC3C[C@H]1C[C@@](O)(C3)C2,"CD4+ CD28+ naive T cells, flow cytometry","Japanese humans, peripheral blood",60 mg single dose,baseline: baseline,percent change,-1.57%
COc1ccc2c(c1)c(CC(=O)O)c(C)n2C(=O)c1ccc(Cl)cc1,ABTS,DMSO,concentration not given,,ABTS radical cation scavenging,79.64 ± 0.3%
FC(F)=Cc1cc(C(F)(F)F)cc(C(F)(F)F)c1,HPLC-MS,,"pH 10.2, together with: 50 mM N-α-acetyl-lysine",,pseudo-first-order rate constant,0.7 h⁻¹
Cc1oncc1C(=O)Nc1ccc(C(F)(F)F)cc1,item: dihydroorotate,"female CD-1 mice, blood","oral, 30 mg/kg daily, 8 h after dose 3",,DHO concentration,32.8 ± 4.71 µM
COc1ccc(-c2cncc(N[C@@H](C)c3cccc(NC(=O)c4cncc(C)c4)c3)n2)cc1OC,item: rno-miR-24-3p,"rat SU5416/hypoxia model, lung","dose not given, unit not given",baseline: SU5416/hypoxia vehicle,delta delta Ct,0.451
c1ccc(Nc2nc(-c3ccccc3)no2)cc1,"CoA-CPM signal reduction, CPM fluorescence thiol",cell-free biochemical,"assay interference counter-screen, together with: CoA replacing acetyl-CoA",,IC50,> 125 µM
CCCC(CCC)C(=O)Oc1cccc(C(O)CCN)c1.O=CO (centres unmarked),OCT at 500 µm from nerve head,"Abca4-/-Rdh8-/- mice, photic damage","oral, 50 mg/kg, 7 days, together with: 10,000 lx light, 30 min",,ONL thickness,16.9 µm and 23.1 µm and 51.7 µm and 32.7 µm and 20.3 µm and 56.9 µm
CN[C@@H]1COc2c(S(=O)(=O)NC(=O)Nc3c4c(cc5c3CCC5)CCC4)cnn2C1,item: IL-1β,"human participants, whole blood ex vivo","900 mg single dose, 24 h, together with: LPS/ATP",baseline: baseline,inhibition,84.1%
FC(F)(F)Oc1cccc(-c2cnc3ccc(-c4ccncc4)nn23)c1,,"mouse, MDA-MB-231-Luc xenograft","30 mg/kg, start",,tumour bioluminescence,1.77e+10 photons/s and 1.4e+10 photons/s and 2.28e+10 photons/s and 4.61e+09 photons/s and 4.96e+09 photons/s
CCCCOc1nc(N)c2c(n1)N(Cc1cccc(CN3CCCC3)c1)CC(=O)N2,,"human, blood","dose not given, 12 h, alone",,TLR7 mRNA level,increased
O=C(O)CCC(=O)O.[2H]C([2H])([2H])Oc1cc(C)c2[nH]ccc2c1CN1CC[C@@H](C2CC2)C[C@H]1c1ccc(C(=O)O)cc1,"EIA, item: complement fragment Bb","human, plasma","300 mg once daily, multiple ascending dose",,maximum inhibition,43.6%
Cl.N[C@@H](CC1=CCC(O)(c2nncnn2)C=C1)C(=O)O (some centres unmarked),iEDDA cycloaddition,aqueous DMSO 25 %,"37 °C, together with: TCO-OH 22 mM",,kobs,9 s⁻¹
CC(C)C[C@H](NC(=O)[C@H](CCC1CCCCC1)NC(=O)[C@@H]1CCCN1C(=O)c1ccc(F)cc1)C(=O)NC(C)(C)C(=O)N[C@@H](CC(C)C)C(=O)N[C@@H](CC(C)C)C(=O)NC(C)(C)C(=O)NC(C)(C)C(=O)NCCC(=O)NCCN(C)C,,small unilamellar vesicles,concentration not given,,calcein leakage,6.61%
N#Cc1ccn2c(-c3ccncc3)c(-c3ccc(F)cc3)nc2c1,"kinase binding, competitor, MIB/MS competition, item: CKA1",Candida albicans cell lysate,10 µM,baseline: DMSO,log2 fold change,0.587
CCOc1c([C@H](C)n2nc(C)c3c(N)ncnc32)cc(Cl)c(F)c1[C@@H]1CNC(=O)C1,"Olink proximity extension proteomics, item: TMPRSS15","human FL or MZL patients, plasma","dose not given, week 8",baseline: baseline,plasma protein level change,237%
C[C@H](Oc1ccc(Br)cc1-c1ccon1)C(=O)O,handgrip dynamometry,healthy human males,"400 mg once daily, multiple doses",baseline: placebo,maximum voluntary grip contraction,1.81 kg
O=[N+]([O-])c1cccc(S(=O)(=O)Nc2ccc(O)c(Br)c2)c1,"CoA-CPM signal reduction, CPM fluorescence thiol",cell-free biochemical,"assay interference counter-screen, together with: CoA replacing acetyl-CoA",,IC50,> 125 µM
Cn1cc(Nc2nccc(-c3ccc4c(c3)CN(C3COC3)CC[C@H]4NC(=O)c3cn(C(C)(C)C)nn3)n2)cn1,item: Natural Killer Cell Signaling,"splenic B cells, Mus musculus","30 mg/kg, together with: IgD activation","baseline: vehicle, direction not given",pathway activation z-score,2.12
C=CC(=O)Nc1cc(Nc2nccc(Nc3cc(Cl)c(F)cc3C(C)(C)O)n2)c(OC)cc1N1CC[C@@H](N(C)C)C1,,"human, EGFR exon20ins NSCLC","dose not given, D770_N771insSVD subtype",,confirmed objective response rate,60%
CCOCc1nc2c(N)nc3ccccc3c2n1CC(C)(C)O,"CD86 expression, flow cytometry","CD20+ B cells in PBMC, human",100 or 1000 nM,,CD86 induction,increased
CC(C)[C@H](NC(=O)[C@H](Cc1ccc(O)cc1)NC(=O)[C@H](Cc1ccc(O)cc1)NC(=O)[C@@H]1CCCN1C(=O)[C@H](CCC(=O)O)NC(=O)[C@H](CCC(=O)O)NC(=O)[C@H](Cc1c[nH]c2ccccc12)NC(=O)[C@@H]1CCCN1C(=O)[C@@H](NC(=O)[C@H](CCC(N)=O)NC(=O)c1ccc2c(c1)C(=O)OC21c2ccc(O)cc2Oc2cc(O)ccc21)C(C)C)C(=O)N[C@H](C(=O)N[C@@H](CCCCN)C(=O)N[C@@H](CCCCN)C(=O)N[C@@H](CO)C(=O)N[C@@H](CO)C(=O)NCC(=O)NCC(N)=O)C(C)C,surgeon confidence in nerve,"human head and neck surgery, nerves","500 mg, improved",baseline: white light,share of responses,14.2%
Sc1ncnc2ccccc12,"CoA-CPM signal reduction, CPM fluorescence thiol",cell-free biochemical,"assay interference counter-screen, together with: CoA replacing acetyl-CoA",,IC50,> 125 µM
CC(C)n1c(C2CCNCC2)nc2c([N+](=O)[O-])c(Br)c(Br)cc21,,"IDH-mutated AML patients, bone marrow blasts","all dose levels, median and range",,cycles to maximum reduction,3 cycles
Cc1n[nH]c2ccc(-c3cc(OC[C@@H](N)Cc4ccccc4)cnc3-c3ccoc3)cc12,"kinase binding, competitor, MIB/MS competition, item: MCK1",Candida albicans cell lysate,100 nM,baseline: DMSO,log2 fold change,-0.0754

# Some of these lines once more:
Compound,test,test system,setting,scale,endpoint,value
C=CC(=O)Nc1cc(Nc2nccc(Nc3cc(Cl)c(F)cc3C(C)(C)O)n2)c(OC)cc1N1CC[C@@H](N(C)C)C1,,"human, EGFR exon20ins NSCLC","dose not given, D770_N771insSVD subtype",,confirmed objective response rate,60%
CCOCc1nc2c(N)nc3ccccc3c2n1CC(C)(C)O,"CD86 expression, flow cytometry","CD20+ B cells in PBMC, human",100 or 1000 nM,,CD86 induction,increased
CC(C)[C@H](NC(=O)[C@H](Cc1ccc(O)cc1)NC(=O)[C@H](Cc1ccc(O)cc1)NC(=O)[C@@H]1CCCN1C(=O)[C@H](CCC(=O)O)NC(=O)[C@H](CCC(=O)O)NC(=O)[C@H](Cc1c[nH]c2ccccc12)NC(=O)[C@@H]1CCCN1C(=O)[C@@H](NC(=O)[C@H](CCC(N)=O)NC(=O)c1ccc2c(c1)C(=O)OC21c2ccc(O)cc2Oc2cc(O)ccc21)C(C)C)C(=O)N[C@H](C(=O)N[C@@H](CCCCN)C(=O)N[C@@H](CCCCN)C(=O)N[C@@H](CO)C(=O)N[C@@H](CO)C(=O)NCC(=O)NCC(N)=O)C(C)C,surgeon confidence in nerve,"human head and neck surgery, nerves","500 mg, improved",baseline: white light,share of responses,14.2%
Sc1ncnc2ccccc12,"CoA-CPM signal reduction, CPM fluorescence thiol",cell-free biochemical,"assay interference counter-screen, together with: CoA replacing acetyl-CoA",,IC50,> 125 µM
CC(C)n1c(C2CCNCC2)nc2c([N+](=O)[O-])c(Br)c(Br)cc21,,"IDH-mutated AML patients, bone marrow blasts","all dose levels, median and range",,cycles to maximum reduction,3 cycles
